Measurements collected from several papers.
Parts stem from different laboratories: compare values within a part only. Changes are numbered by the printed parent chain.

Series 1 — method: RNA Bind-n-Seq; form: RNA; medium: in vitro; tested at: 200 nM; setting: whole 134-nt RNA, ends assumed; together with: 150 mM KCl; baseline: input library; direction: higher = stronger binding
Target: Ras GTPase-activating protein-binding protein 1, full length (G3BP1, Homo sapiens, UniProt Q13283)
Sequence of UniProt Q13283 (whole entry, looked up): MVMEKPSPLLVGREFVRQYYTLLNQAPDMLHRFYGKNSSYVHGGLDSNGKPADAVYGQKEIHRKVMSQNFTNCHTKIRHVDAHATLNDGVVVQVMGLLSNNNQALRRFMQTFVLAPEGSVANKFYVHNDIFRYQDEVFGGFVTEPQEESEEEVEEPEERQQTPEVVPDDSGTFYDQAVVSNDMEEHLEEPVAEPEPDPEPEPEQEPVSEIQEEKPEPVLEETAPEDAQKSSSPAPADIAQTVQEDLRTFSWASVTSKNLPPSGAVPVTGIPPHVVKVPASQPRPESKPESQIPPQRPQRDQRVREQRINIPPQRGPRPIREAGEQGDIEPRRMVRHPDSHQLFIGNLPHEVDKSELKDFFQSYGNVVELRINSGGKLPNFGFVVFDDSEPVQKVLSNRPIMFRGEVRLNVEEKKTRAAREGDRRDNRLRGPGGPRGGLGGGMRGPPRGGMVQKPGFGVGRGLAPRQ
Constant ends, left off below: GGGAGUUCUACAGUCCGACGAUC … UGGAAUUCUCGGGUGUCAAGG
`ACCAUGCAGGUGGGCAUCUUUGGGAAGUGGGGCAAGGGGGGGAUAGGUAGGGGGGUAACACUUUGGGAACAGGUGGUCCCAGGUCGUUUC` has a log2 enrichment of 0.867.
For `AGUCCUGUGCUACACAUCGUAUGUACCGAAUCAAACCCAAAUUUUUAAACCCCCAAAAAAGUAUUAUGUUACGCCGUUCGGAUCUGCACU`, the log2 enrichment was -0.395.
`CCUGUGCUACACAUCGUAUGUACCGAAUCGGAAAAAAAGGGGAAAAAAAGGGAAAAAAAGGAAAGUAUUAUGUUACGCCGUUCGGAUCUG` has a log2 enrichment of -0.929.
With `UGCUAGGACUUGAUGGAUCACUAGUUUUUCUGGUAAGUAAAACUAAUUUUUUUUUUUUUUUUUUGAGACGGAAUCUCACUCUGUCACCCA` the log2 enrichment was 1.04.
For `AAGUCCUGUGCUACACAUCGUAUGUACCGAAUCGGUGGUUUUUUUGGUUUUUUUGGAAAGUAUUAUGUUACGCCGUUCGGAUCUGCACUU`, the log2 enrichment was -1.36.
`CCUGUGCUACACAUCGUAUGUACCGAAUCGGGGCCCCCCGGGGCCCCCCGGCCCCCCGGGAAAGUAUUAUGUUACGCCGUUCGGAUCUGC` has a log2 enrichment of -0.599.
The log2 enrichment of `AGUCCUGUGCUACACAUCGUAUGUACCGAAUCAAAUUUUUUUAAAUUUAAAUUUAAAAAAGUAUUAUGUUACGCCGUUCGGAUCUGCACU` is reported as -1.81.
`UCAAGUCCUGUGCUACACAUCGUAUGUACCGAAUCGGGGCCCGGGCCCGGCCCGGAAAGUAUUAUGUUACGCCGUUCGGAUCUGCACUUC` has a log2 enrichment of -0.876.
For `UUGGAAGAGACCAGUGAAAUUCGAUCUGACUUGGAGCAGUUAGACCACGAGGUUAAGGAGGCUCAGACACUGUGCGAUGAACUCUCAGUG`, the log2 enrichment was 0.625.
With `UAUUCCAAUGUCUGUGGGAAUAAUUGACACAAGGACGAAUCCAAGCCAGUUAAAUGCGGUUGAAUUUCUGUGGGACCCAGCAAAACGCAC` the log2 enrichment was -0.0623.
`CAAGUCCUGUGCUACACAUCGUAUGUACCGAAUCGGGUUUGGGUUUGGGUUUGGGAAAGUAUUAUGUUACGCCGUUCGGAUCUGCACUUC` gave a log2 enrichment of 0.798.
`UGGGAGGUGGAUUUUGUUUAUUUUUUUAGCUCAUUUCCAGGGGUGGGAAUUUUUUUUUAAUAUGUGUCAUGAAUAAAGUUGUUUAUGAAA` has a log2 enrichment of 0.139.
`CCUCAAGUCCUGUGCUACACAUCGUAUGUACCGAAUCGGCGGGCGGGGCGGGGAAAGUAUUAUGUUACGCCGUUCGGAUCUGCACUUCCA` has a log2 enrichment of 0.429.
With `ACCAUGCAGGUGGGCAUCUUUGGGAAGUGGGGCAAGGGGGGGAUAGAAAGGGGGGUAACACUUUGGGAACAGGUGGUCCCAGGUCGUUUC` the log2 enrichment was 0.87.

Series 2 — method: aptamer microarray, sandwich; form: DNA with 2'F-ANA; medium: in vitro; tested at: 200 nM; together with: Cy3 exosite-II aptamer, 400 nM; direction: higher = stronger binding; sequence: GGTTGGTGTGGTTGG
Target: Prothrombin, mature alpha-thrombin (F2, Homo sapiens, UniProt P00734)
Setting: whole 15-mer aptamer, many near background
`2'F-ANA at 2 4 5 6 7 9 10 12` — result for “mean fluorescence intensity”: 51.6 a.u.
`2'F-ANA at 1 2 4 5 8 13 14 15` — result for “mean fluorescence intensity”: 46 a.u.
For `2'F-ANA at 2 4 5 10 11 12`, “mean fluorescence intensity” read 50.1 a.u.
For `2'F-ANA at 1 3 5 8 9 10 11 12 14 15`, “mean fluorescence intensity” read 54.2 a.u.
`2'F-ANA at 1 4 5 7 9 11 12 14 15` — result for “mean fluorescence intensity”: 45.5 a.u.
For `2'F-ANA at 1 3 5 6 7 8 10 14 15`, “mean fluorescence intensity” read 81.2 a.u.
Under “mean fluorescence intensity”, `2'F-ANA at 1 2 3 4 7 8 9 10 11 13` is recorded as 57.5 a.u.
Under “mean fluorescence intensity”, `2'F-ANA at 1 2 3 4 5 9 10 12 13 14 15` is recorded as 50.5 a.u.
`2'F-ANA at 1 4 5 10 11 12`: “mean fluorescence intensity” 46.4 a.u.
`2'F-ANA at 2 4 5 8 9 11 13 14 15` — result for “mean fluorescence intensity”: 50.1 a.u.
Under “mean fluorescence intensity”, `2'F-ANA at 1 2 3 4 7 10 12 15` is recorded as 77.9 a.u.
Under “mean fluorescence intensity”, `2'F-ANA at 2 3 4 5 8 9 12 13 15` is recorded as 192 a.u.
`2'F-ANA at 2 3 5 11 12 15`: “mean fluorescence intensity” 178 a.u.
`2'F-ANA at 1 2 4 8 10 11 13 15`: “mean fluorescence intensity” 71.2 a.u.
`2'F-ANA at 1 3 5 9 10 13`: “mean fluorescence intensity” 47.6 a.u.
`2'F-ANA at 1 3 4 8 9 14` — result for “mean fluorescence intensity”: 66 a.u.
`2'F-ANA at 2 4 7 9 12 13 15` — result for “mean fluorescence intensity”: 368 a.u.
For `2'F-ANA at 1 2 4 5 6 9 10 12 13 14`, “mean fluorescence intensity” read 56.8 a.u.
For `2'F-ANA at 1 3 4 5 9 10 11 12 13 14 15`, “mean fluorescence intensity” read 45.9 a.u.

Series 3 — method: protein binding microarray; form: double-stranded DNA, one strand shown; medium: in vitro; tested at: not given; baseline: not given; direction: higher = stronger binding
Target: Histone acetyltransferase KAT6A, winged helix 2, GST fusion (KAT6A, Homo sapiens, UniProt Q92794, residues 85-181)
Setting: 8-mer, flanks averaged, mean of 2 arrays, mostly near background
Target sequence (chain): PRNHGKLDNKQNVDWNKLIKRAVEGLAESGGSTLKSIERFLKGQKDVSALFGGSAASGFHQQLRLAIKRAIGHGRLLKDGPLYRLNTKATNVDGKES
`ACTGAGAC` has an E-score of 0.0305.
For `CGCCGTAA`, the E-score was 0.0331.
`GTTGCTTA` gave an E-score of 0.113.
With `CTGCTTTC` the E-score was 0.0228.
With `GGACCAAA` the E-score was 0.124.
With `AAACAACC` the E-score was 0.14.
With `AGACCGCT` the E-score was 0.0658.
For `ATCTGTTC`, the E-score was -0.137.
`GAGCACTC` has an E-score of -0.0122.
With `AATGAGCT` the E-score was -0.0416.
`ATTCGGGG` has an E-score of 0.11.
With `AGATATTC` the E-score was -0.0579.
`CACTAATA` gave an E-score of 0.13.
The E-score of `CCAGCCAA` is reported as -0.0143.
`GCTCATGA` has an E-score of 0.0544.
`ATCCCTTA` gave an E-score of -0.0742.
`CTCCATTC` gave an E-score of -0.045.
`ACGGGGGC` has an E-score of 0.0607.
With `GTACAAAC` the E-score was 0.00464.
The E-score of `AATTGCAA` is reported as -0.0049.
`GGTCGTGA` gave an E-score of 0.0471.
The E-score of `AGCGTAAT` is reported as -0.099.
For `GCTCTGGA`, the E-score was 0.149.
For `AGTATACA`, the E-score was -0.0106.

Series 4 — method: RNA Bind-n-Seq; form: RNA; medium: in vitro; tested at: 365 nM; baseline: no-protein control; direction: higher = stronger binding
Target: RNA binding protein fox-1 homolog 2, RRM domain, GST-SBP tag (RBFOX2, Homo sapiens, UniProt O43251-10, residues 100-194)
Setting: natural RNA segment, single round, ends assumed
Constant ends, left off below: GGGAGUUCUACAGUCCGACGAUC … UGGAAUUCUCGGGUGCCAA
Target sequence (chain): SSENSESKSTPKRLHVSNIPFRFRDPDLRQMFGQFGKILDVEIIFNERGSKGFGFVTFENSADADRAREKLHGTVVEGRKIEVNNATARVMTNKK
`UAUAAAAGCCUUUUCAGAGUUUUCAUCUGAUUUGUCCUGAGGAUCUAGUUCUAUCAAAUACCUUAUUUUACCUUUGCCAUACUUGCUGCACAAGCAGACACUGCUGGACU` — result for “RBNS enrichment (R)”: 0.224.
For `CAUUGUUCUAUGUCUUUGUUGGCUGGUGUAUUUUAUAAACUAAAGCUGCCUAUGUUUCUUUUUAAAGCUCGCAUUCCCAGAAUCAGCUUAGGCUUCUAUGAAUUCAGCCU`, “RBNS enrichment (R)” read 0.659.
For `GCUGUUUUAAAGCCCAUUUCACGAGGAACAAAGAUUUACUUCCUGUCCUGCCAUUCGUGUGCUUCCAUGGACAAACCUGAUUUUUUUCUCUUAGUUCUAAAGAAUCUUGG`, “RBNS enrichment (R)” read 0.29.
`GAAAGUCCUGUUGAAAUGAACAAUUGUCUGCCCCACAAUCAAGAAUGUAUGUGUAAAGUGUGAAUAAAUCUCAUAUCAAAUGUCAAACUUUUACAUGUGAAUGAUUUUCU` — result for “RBNS enrichment (R)”: 1.14.
For `CUUGGUUUGACCUAAAACAUCUGAUUAAUAUAGGCUAGCUGAUUUCUUAAAAAUUCGUUGCAUUGAAGGAUAUUUUGCAUGUCUGUAACACCUGUCAAUACUUGUUUGUA`, “RBNS enrichment (R)” read 4.04.
Under “RBNS enrichment (R)”, `GCUGGCUCUGAAACAAUCCUUGCAGUUACUCCCCAGCUGUUCGUCUGGACAGCUCAUUCAAGUGGAUUUUUAACUAUUAGGGAUCACUGCGAAGUUUCGUUGGAUUUUAU` is recorded as 0.256.
For `GGAAUCUUUUAUCAUUAAACACCUAGUACGAAGCAUUUGCAGGAACCUACUGUGCAGUAUCAUAGAAGCAAGCAGAUACCAAGCAAAAAACUGAUGAUUGAAGAGUAAAU`, “RBNS enrichment (R)” read 0.43.
Under “RBNS enrichment (R)”, `GAGACUUCAGAUUGGAAUACCUUGGGAUCUCCUCACCCCACUUUACAGAACUGCCCAAUCCAGGGGCUCUGGGAUAUGGCUGCCCGGGAUUACAGAAAGACACGGCACUG` is recorded as 0.7.
`UUUACACACCCCAGCUCCCGUUAAAUUCUCCUGUGACUGCUAACAAACCCAUGUCUGCUUUCAGACAUCCCAGGGUGUUUCUCUCGAACAUGCCAUCUGGUGCCAAAUGA` — result for “RBNS enrichment (R)”: 0.797.
`CAAAGAAUCUCAAAUGUAAAAUUUUAUAUUGGGUUUGAACCACUGACGUGUCCAUUCUGAUAUAUGCAGUCAUUUUGAAUUUGGUCUGUGCCUUCUCUGGAUCCCUCCCU` — result for “RBNS enrichment (R)”: 0.268.
`CCUCUGCCUCUAUUUCCCAGGACACCUAGAGGAUUCCCUUCUGAACCACCCCAGUGGGGUCUACCUGGGCCGGGACACACUGUACCCACCAUGUGGGGAGCGGGAGCAGG` — result for “RBNS enrichment (R)”: 0.401.
For `GGGGGCACAGUUGUUGUUUGGUAUCCAGGCAGUUGAGCUGAGGCAUUCAUAGGAUGUCUUAGAAGACAUUGUGGUAUGGUGCCACCUCUGACCACACAGCCUCUGCCUCA`, “RBNS enrichment (R)” read 0.347.

Series 5 — method: DHFR PCA, deep sequencing; medium: yeast; together with: (+)-ABA 0.0091 µM; baseline: wild-type fitted maximum; direction: higher = stronger binding
Target: ABI1, truncated, D143A, DHFR fusion (Arabidopsis thaliana)
Setting: methotrexate growth selection, single substitutions
Starting sequence: PYL1, truncated, DHFR fusion (Arabidopsis thaliana); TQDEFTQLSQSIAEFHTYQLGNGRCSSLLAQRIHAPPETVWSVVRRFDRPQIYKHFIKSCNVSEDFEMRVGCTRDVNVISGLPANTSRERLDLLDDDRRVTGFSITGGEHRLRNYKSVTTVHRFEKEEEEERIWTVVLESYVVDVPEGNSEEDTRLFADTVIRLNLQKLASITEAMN
Under “relative binding score”, `R90E` is recorded as 4.88%.
`R99Y` — result for “relative binding score”: 78.1%.
`L8E` — result for “relative binding score”: 6.98%.
For `E67R`, “relative binding score” read 9.94%.
For `N22K`, “relative binding score” read 53.4%.
Under “relative binding score”, `A170Q` is recorded as 13.1%.
`I172T`: “relative binding score” 3.4%.
`P146H`: “relative binding score” 3.64%.
`V143W` — result for “relative binding score”: -2.42%.
`L164Q` — result for “relative binding score”: 3.67%.
Under “relative binding score”, `L28W` is recorded as -3.71%.
`L112I` — result for “relative binding score”: -10.3%.
`T6M`: “relative binding score” 46.1%.
`T1A`: “relative binding score” 22.4%.
Under “relative binding score”, `R32M` is recorded as 25.4%.

Further values, each from its own experiment
`SFEPRNLLSLFED`: “score relative, wild type, peptide” 0 (human cyclin E1; cyclin docking binding, deep mutational scanning; peptide, yeast cyclin E1-Cln2 system; direction not given).

Excerpt of the above (series 5):
Under “relative binding score”, `R90E` is recorded as 4.88%.
`R99Y` — result for “relative binding score”: 78.1%.
`L8E` — result for “relative binding score”: 6.98%.
For `E67R`, “relative binding score” read 9.94%.
For `N22K`, “relative binding score” read 53.4%.
Under “relative binding score”, `A170Q` is recorded as 13.1%.
`I172T`: “relative binding score” 3.4%.
`P146H`: “relative binding score” 3.64%.
`V143W` — result for “relative binding score”: -2.42%.
`L164Q` — result for “relative binding score”: 3.67%.
Under “relative binding score”, `L28W` is recorded as -3.71%.
`L112I` — result for “relative binding score”: -10.3%.
`T6M`: “relative binding score” 46.1%.
`T1A`: “relative binding score” 22.4%.
